Assay results of several laboratories.
Compare with care: the assays were run in different laboratories. Numbers after ± are the reported error.
Cell line: U-87 MG

Structure (SMILES)	assay	conditions	scale	measurement	result
C[n+]1c(/C=C/c2ccc(N(c3ccccc3)c3ccccc3)cc2)cc(/C=C2\Sc3ccccc3N2CCCN2CCCC2)c2ccccc21	cell growth or viability, MTT	36 h		IC50	6590 nM
O=C(CCl)c1ccccc1Nc1cccc(C(F)(F)F)c1	cell growth or viability, SRB	48 h		GI50	7710 nM
CCN(C(=O)c1cc(F)ccc1Oc1nncnc1N1CCC2(C1)CN([C@H](CCCN(C)CCOC)C(C)C)C2)C(C)C		72 h		GI50	> 10000 nM
N#Cc1cccc(/C=C/C(=O)c2ccc(O)cc2)c1	item: OTUD1	concentration not given	relative to: untreated	fold change	34.5
CC(C)c1ccc(N(C)c2ccc3c(c2)OCC[C@H]3CNc2cnccc2C(=O)O)cc1	cell growth or viability, ATP luminescence	7 days		IC50	14.7 nM
C=CCOCO[C@H](C(=O)NC[C@@H]1C[C@@H](OC)C(C)(C)[C@@H](C[C@@H](COC)OC)O1)[C@@]1(OC)CC(=C)[C@@H](C)[C@@H](C)O1	cell viability, sulforhodamine B	72 h, 37 °C, added: H2O2 100 µM		IC50	1230 ± 329 nM
N#C[C@@H]1CC(F)(F)CN1C(=O)CNC(=O)c1ccnc2c(NC(=O)[C@H](CCCCNC(=O)CCOCCOCCOCCOCCOCCOCCNC(=O)CN3CCN(CC(=O)[O-])CCN(CC(=O)[O-])CCN(CC(=O)[O-])CC3)NC(=O)CCCc3ccc(I)cc3)cccc12.[177Lu+3]		4 h	relative to: added dose	cell uptake	9.73 ± 0.51%
CNS(=O)(=O)Nc1nccc(Cc2c(C)c3ccc(Oc4ncccc4F)cc3oc2=O)c1F	cell viability, inhibitor, CellTiter-Glo	7 days		IC50	181 nM
COc1cccc(-c2onc3nc(Nc4ccc(S(N)(=O)=O)cc4)sc23)c1O	MTT			IC50	1150 nM
COc1cc(/C=C/c2cc(-[c-]3cccc3)[nH]n2)ccc1O.[Fe+2].c1cc[cH-]c1	mitochondrial activity, MTT	12.5 µM, 48 h		inhibition	~60%
COc1ccc(CNc2ccc3c(c2)S(=O)(=O)C=C3)cc1	resazurin	5 µM, 24 h		viability	65%
Cn1ncc(-c2ccc3c(=O)[nH]nc(CN)c3c2)c1-c1c(F)c(Cl)cc(OC2CC2)c1C#N	cell viability, inhibitor, CellTiter-Glo	120 h		IC50	50 nM
Nc1nc2cnc(C(=O)N3CCOC[C@@H]3c3ccc(C(F)(F)F)cc3)cc2c2c1COC2				IC50	357 nM
CCOc1cncc(-c2ccc(NC(=O)C3(c4ccnc(NS(=O)(=O)C5CC5)n4)CCOCC3)nc2)n1	cell growth or viability, ATP luminescence	72 h		IC50	10000 nM
